Measurements pooled from the literature.
Protocols differ between the studies behind these lines.
Observed: metabolic stability
Medium: liver microsomes

Structure (SMILES)	test system	conditions	microsomal CLint
CCc1nc(N)nc(N)c1C#CC(C)c1cc(F)cc(-c2cc(C)nc(C)c2)c1 (racemic)	mouse	–	~28 µL/min/mg
CCCCCCCCN(CCC(=O)Nc1ccccc1)C(=O)c1ccccn1	male CD-1 mouse	1 µM	144 µL/min/mg
CCn1cc(C(=O)NCCNCCO)c(=O)c2cc(OCc3ccc(C(C)(C)C)cc3)c(Cl)cc21	male CD-1 mouse	1 µM	< 11.6 µL/min/mg
Cc1cc(N2CCC(C#N)(C3(C)CC3)C2=O)cc(C(=O)NCc2cc(F)cc(-c3cnn(C)c3)c2)n1 (racemic)	mouse	0.5 µM	71 µL/min/mg
COc1cc(O)c(-c2cc(-c3cc(-c4c(O)cc(OC)c5c4C[C@@H](C)N[C@@H]5C)c4cc(C)cc(OC)c4c3O)c(O)c3c(OC)cc(C)cc23)c2c1[C@@H](C)N[C@H](C)C2	male CD-1 mouse	1 µM	< 11.6 µL/min/mg
CNC(=O)c1cc(C)ccc1NC(=O)c1ccc(-c2cc(O)ccc2C)c(C)c1	mouse	2 µM	33 µL/min/mg
CN1CCN(C(=O)c2ccc(-c3cc4nccc(-c5ccc6cnccc6c5)c4o3)cc2)CC1	mouse	–	301 µL/min/mg
COC(=O)c1ccc2c(c1)NC(=O)/C2=C(\Nc1ccc2c(c1)CCN2C(=O)CN1CCOCC1)c1ccccc1	CD-1 mouse	10 µM, pH 7.4	40 µL/min/mg
NC(=O)c1c(F)ccc(OCc2nc3cc(Cl)cnc3s2)c1F	mouse	10 µM	14.5 µL/min/mg
CNC(=O)C1CCN(c2cc(C)c(F)cc2NC(=O)c2ccc(-c3cc(O)ccc3C)c(C)c2)CC1	mouse	2 µM	37 µL/min/mg
CCc1nc(N)nc(N)c1C#CC(C)c1cc(-c2cc(C)nc(C)c2)ccc1OC(F)(F)F (racemic)	mouse	–	~22 µL/min/mg
CNC(=O)C1CCN(c2ccccc2NC(=O)c2ccc(-c3c(C)ccc4[nH]ncc34)c(C)c2)CC1	mouse	2 µM	245 µL/min/mg
CCc1nc(N)nc(N)c1C#CC(C)c1cc(-c2cc(C)nc(C)c2)ccc1Cl (stereo not shown)	male CD-1 mouse	0.5 µg/mL, pH 7.4	~25 µL/min/mg
CC1=N[C@H](C)Cc2c(-c3ccc(C)cc3)ccc(O)c21	male CD-1 mouse	1 µM	> 250 µL/min/mg
O=C(NCCNCCO)c1cn(Cc2ccc(F)cc2)c2cc(Cl)c(OCc3ccc(C(F)(F)F)cc3)cc2c1=O	male CD-1 mouse	1 µM	< 11.6 µL/min/mg
CCN(c1nc(N[C@H](CC(N)=O)C(=O)NC)nc(N2CCN(c3ccccc3C#N)CC2)n1)C1CCCCC1	mouse	–	18 µL/min/mg
CCc1nc(N)nc(N)c1C#CC(C)c1cc(-c2cc(C)nc(C)c2)ccc1OC (stereo not shown)	male CD-1 mouse	0.5 µg/mL, pH 7.4	~173 µL/min/mg
O=C(c1cc2ccc(Cl)cc2s1)N(c1ccc(OCCN2CCCC2)cc1)c1ccc(OCCN2CCCC2)cc1	female mouse	–	8 µL/min/mg
CCn1cc(C(=O)NCCNCCO)c(=O)c2cc(OCc3ccc(F)cc3)c(Cl)cc21	male CD-1 mouse	1 µM	< 11.6 µL/min/mg

A few entries again:
Structure (SMILES)	test system	conditions	microsomal CLint
CCCCCCCCN(CCC(=O)Nc1ccccc1)C(=O)c1ccccn1	male CD-1 mouse	1 µM	144 µL/min/mg
CCc1nc(N)nc(N)c1C#CC(C)c1cc(F)cc(-c2cc(C)nc(C)c2)c1 (racemic)	mouse	–	~28 µL/min/mg
